Assay results pooled from the literature.
Lines come from different studies, so protocols differ. Numbers after ± are the reported error.

Structure (SMILES) | assay | test system | setting | scale | measurement | result
COc1ccc([N+](=O)[O-])cc1NC(=O)CCC(=O)[O][Zn][O]C(=O)CCC(=O)Nc1cc([N+](=O)[O-])ccc1OC.c1ccncc1 | DPPH scavenging, absorbance |  | 125 µg/mL |  | inhibition | 66.3%
CCc1noc(CC)c1C(=O)O[C@H]1C(C)=C[C@]23C(=O)[C@@H](C=C(CO)[C@@H](O)[C@]12O)[C@H]1[C@@H](C[C@H]3C)C1(C)C |  | mouse, B16 melanoma | topical, 0.1% hydroalcoholic gel, 3 months, two consecutive days |  | tumour-free animals | 90%
COc1ccc(CCN2CCC[C@H](CN3CCc4cc(OC)c(OC)cc4CC3=O)C2)cc1OC | VTA dopamine neurons | CSDS-susceptible male mice | intraperitoneal, 20 mg/kg | reference: baseline | firing rate | decreased
CCCCCCCC/C=C\CCCCCCCCOP(O)(O)=S.N |  | C57BL/6 mouse | subcutaneous, 1 mg/kg single, day 30, dosed 48 or 72 h after irradiation, with: 6.4 Gy total-body irradiation |  | survival increase | 33%
CC1(CCCOC2C(O)OC(CO)C(O)C2O)C(=O)[O][Pt][O]C1=O.NC1CCCCC1N (mixture of isomers) |  | BALB/c mice, GLUT1-expressing breast cancer syngeneic | intravenous, 5 mg/kg, every other day, four doses, 30 days | reference: vehicle | tumour volume reduction | 10 fold
CCc1cnc(NC(=O)c2cc(S(=O)(=O)N3CCOCC3)ccc2N(C)C2CCCC2)s1 |  | mouse, H1975-OR xenograft | intraperitoneal, 10 mg/kg every other day, 90 days |  | progression-free survival | 60%
CC[C@H](C)[C@H](NC(=O)[C@@H](NC(=O)[C@H](CC(=O)O)NC(C)=O)[C@@H](C)O)C(=O)N[C@@H](CCCNC(=N)N)C(=O)N[C@@H](CC(C)C)C(=O)N[C@@H](CC(C)C)C(=O)N[C@@H](Cc1ccccc1)C(=O)N[C@@H](CCC(N)=O)C(=O)N[C@@H](CC(C)C)C(=O)N[C@@H](CCSC)C(=O)N[C@@H](CCCNC(=N)N)C(=O)N1CCC[C@H]1C(=O)N1CCC[C@H]1C(=O)N[C@@H](CC(N)=O)C(=O)N[C@@H](CCSC)C(=O)N[C@H](C(=O)N1CCC[C@H]1C(=O)N[C@@H](C)C(=O)N[C@H](C(=O)N[C@@H](CC(N)=O)C(=O)N[C@@H](C)C(N)=O)C(C)C)[C@@H](C)O | refers to: HA-15 tetramer | antigen-experienced tetramer+ CD4 T cells, healthy adults, HLA-DRB1*0101 | dose not given |  | α4β7− CCR9− cells | 9.09%
CC(C)C[C@H](NC(=O)[C@H](CCCCN)NC(=O)[C@H](CCCNC(=N)N)NC(=O)[C@@H](CC(C)C)NC(=O)[C@H](Cc1c[nH]c2ccccc12)NC(=O)[C@H](CC(=O)O)NC(=O)[C@H](CCCCN)NC(=O)[C@@H](CC(C)C)NC(=O)[C@H](CCCNC(=N)N)NC(=O)[C@H](CCC(N)=O)NC(=O)[C@@H](NC(=O)[C@@H](CC(C)C)NC(=O)[C@H](CCCNC(=N)N)NC(=O)[C@H](CCCCN)NC(=O)[C@H](Cc1ccc(C(C)(C)C)cc1)NC(=O)CN)C(C)C)C(=O)N[C@H](C(N)=O)C(C)C | ELISA | C57BL/6 mouse, catheter infection, peri-catheter tissue | dose not given, 3 d | reference: untreated infected | TNF-alpha level | decreased
CC[C@H](C)[C@H](NC(=O)CNC(=O)[C@H](CC(=O)O)NC(=O)[C@H](CC(C)C)NC(=O)[C@@H](NC(=O)[C@H](CC(N)=O)NC(=O)[C@H](CCC(N)=O)NC(=O)CNC(=O)[C@H](CC(C)C)NC(=O)[C@H](CCCCN)NC(=O)[C@H](CCC(=O)O)NC(=O)[C@@H](NC(=O)[C@H](CCCCN)NC(=O)[C@H](CCC(=O)O)NC(=O)[C@H](Cc1ccccc1)NC(=O)[C@H](CC(C)C)NC(=O)[C@H](CCCCN)NC(=O)[C@H](Cc1c[nH]c2ccccc12)NC(=O)[C@@H](N)CCC(=O)O)[C@@H](C)CC)[C@@H](C)CC)C(=O)N[C@H](C(=O)N[C@@H](CCCCN)C(=O)N[C@@H](CC(C)C)C(=O)NCC(=O)N1CCC[C@H]1C(=O)N[C@@H](CC(C)C)C(=O)N[C@@H](CC(C)C)C(=O)N[C@@H](C)C(=O)N[C@@H](CC(C)C)C(=O)N[C@@H](CC(C)C)C(=O)NCC(=O)N[C@@H](CCC(N)=O)C(=O)N[C@@H](CC(C)C)C(=O)N[C@H](C(=O)N[C@@H](CCC(N)=O)C(=O)N[C@H](C(=O)N[C@@H](C)C(=O)N[C@@H](CC(C)C)C(N)=O)[C@@H](C)CC)[C@@H](C)O)[C@@H](C)CC | carboxyfluorescein release, stopped-flow fluorescence | POPC vesicles 50 µM | up to 1 µM, pH 7.5, peptide/lipid 1:50 |  | time constant | 35 s
CSCC[C@H](NC(=O)CNC(=O)[C@H](CC(=O)O)NC(=O)[C@@H](NC(=O)[C@@H](NC(=O)[C@@H](NC(=O)CNC(=O)[C@H](CCC(N)=O)NC(=O)[C@H](CCSC)NC(=O)[C@H](CC(=O)O)NC(=O)[C@H](C)NC(=O)[C@H](C)NC(=O)[C@@H](NC(=O)[C@H](CO)NC(=O)[C@@H](N)CC(C)C)[C@@H](C)O)C(C)C)C(C)C)[C@@H](C)O)C(=O)N[C@@H](C)C(=O)N[C@@H](CO)C(=O)NCC(=O)N[C@@H](CC(C)C)C(=O)N[C@@H](CC(=O)O)C(=O)N[C@@H](CCCCN)C(=O)N[C@@H](CC(=O)O)C(=O)N[C@@H](Cc1ccc(O)cc1)C(=O)N[C@@H](CC(C)C)C(=O)N[C@@H](CCCCN)C(=O)N1CCC[C@H]1C(=O)N[C@@H](CC(=O)O)C(=O)N[C@@H](CC(=O)O)C(=O)O |  | patients with stable disease, p53-positive solid tumours | dose not given, deceased patients |  | survival | 7 to 32 weeks
CC[C@H](C)[C@H](NC(=O)[C@H](Cc1c[nH]c2ccccc12)NC(=O)[C@H](CCCNC(=N)N)NC(=O)[C@H](CCCCN)NC(=O)[C@H](CC(C)C)NC(=O)[C@H](CC(=O)O)NC(=O)[C@H](Cc1ccccc1)NC(=O)[C@H](C)NC(=O)[C@H](Cc1ccc(O)cc1)NC(=O)[C@H](CC(N)=O)NC(=O)[C@H](Cc1ccc(O)cc1)NC(=O)[C@H](CCCNC(=N)N)NC(=O)[C@H](Cc1ccc(O)cc1)NC(=O)[C@H](Cc1ccc(O)cc1)NC(=O)[C@@H](NC(=O)[C@H](CC(C)C)NC(=O)[C@H](C)NC(=O)[C@H](CC(N)=O)NC(=O)[C@H](Cc1ccc(O)cc1)NC(C)=O)[C@@H](C)CC)C(=O)N[C@@H](Cc1ccc(O)cc1)C(=O)N[C@@H](CC(C)C)C(N)=O | refers to: HA-02 tetramer | antigen-experienced tetramer+ CD4 T cells, healthy adults, HLA-DRB1*0101 | dose not given |  | α4β7+ CCR9− cells | 54.5%
Cc1ccc(/C=C/C(=O)O)cc1-c1cc2c(cc1C)C(C)(C)CCC2(C)C | RNA sequencing, refers to: Mpeg1 | rat, brain | dose not given, 24 h | reference: vehicle | log2 fold change | -0.94
O=C(O)/C=C/c1cc(O)cc(O)c1 | DPPH radical scavenging |  | 1000 µg/mL |  | inhibition | 85.2 ± 1.1%
COc1ccc2c(c1)/C(=N\Nc1nnc3n1N=C(c1ccc(Cl)cc1)CS3)C(=O)N2 | angiogenesis | hen egg chorioallantoic membrane | 40 µM | reference: DMSO vehicle | number of blood vessels | decreased
CC(C)C[C@@H]1NC(=O)[C@H](C(C)C)NC(=O)[C@H](CO)NC(=O)CNC(=O)CNC(=O)[C@H](CCCNC(=N)N)NC(=O)[C@@H]2CCCN2C(=O)[C@@H](NC(=O)CC[C@H](NC(=O)c2ccc(N(C)Cc3cnc4nc(N)nc(N)c4n3)cc2)C(=O)O)C(C)(C)SSC[C@@H](C(=O)O)NC(=O)CNC(=O)[C@H]([C@@H](C)O)NC(=O)[C@H](C(C)C)NC1=O |  | rat adjuvant arthritis | iv, 0.2 mg/kg once daily day 0-14, day 14 |  | paw weight | 3.43 ± 0.121 g
CC[C@H](C)[C@H](NC(=O)[C@H](CCCNC(=N)N)NC(=O)[C@H](CCC(N)=O)NC(=O)[C@H](CC(=O)O)NC(=O)[C@H](CC(C)C)NC(=O)[C@H](CC(C)C)NC(=O)[C@H](CC(N)=O)NC(=O)[C@H](Cc1ccccc1)NC(=O)[C@H](CC(=O)O)NC(=O)[C@@H](NC(=O)[C@@H](NC(=O)[C@H](CC(N)=O)NC(=O)CNC(=O)[C@H](CO)NC(C)=O)C(C)C)[C@@H](C)CC)C(=O)N[C@H](C(=O)N[C@@H](Cc1c[nH]c2ccccc12)C(=O)N[C@@H](CCC(N)=O)C(=O)N[C@@H](CC(N)=O)C(=O)N[C@@H](Cc1c[nH]c2ccccc12)C(=O)N[C@@H](Cc1ccc(O)cc1)C(=O)N[C@@H](C)C(N)=O)[C@@H](C)CC | refers to: HA-51 tetramer | antigen-experienced tetramer+ CD4 T cells, healthy adults, HLA-DRB1*0101 | dose not given |  | α4β7+ CCR9− cells | 34.6%
CCN(Cc1ccccc1)C(=O)CCc1nc(CN2CCN(C(=O)Cc3ccc(OC)c(OC)c3)CC2)no1 | elevated plus maze | mouse, CCI neuropathic pain | 20 mg/kg |  | time in central area | 30.9 ± 7.42 s
CCOP(=O)(OCC)OCCCCOC(=O)CC1=C(C)C(=Cc2ccc([S+](C)[O-])cc2)c2ccc(F)cc21 (stereo not shown) |  | nude mice, A549 xenograft | oral, dose not given |  | tumour growth inhibition | 30%
O=C(O)CCCC(=O)O | DPPH radical scavenging |  | 1000 µg/mL |  | inhibition | 82.1 ± 1.21%
N=C(N)NCCC[C@H](NC(=O)[C@@H]1CCCN1C(=O)[C@@H]1CSSC[C@H](N)C(=O)N[C@@H](Cc2ccc(O)cc2)C(=O)N[C@@H](Cc2ccccc2)C(=O)N[C@@H](CCC(N)=O)C(=O)N[C@@H](CC(N)=O)C(=O)N1)C(=O)NCC(N)=O |  | male Sprague-Dawley rat, conscious | intra-arterial, 5 ng/kg | reference: pre-injection baseline | peak heart rate decrease | 16 beats/min
CC[C@@]1(O)C(=O)OCc2c1cc1n(c2=O)Cc2cc3cc(OC(=O)CCCC(=O)NCC(=O)N[C@@H](Cc4ccccc4)C(=O)N[C@@H](Cc4ccccc4)C(=O)N[C@@H](Cc4ccc(OP(=O)(O)O)cc4)C(=O)NCCSSCCNC(=O)CCC(=O)N[C@@H](CCC(=O)O)C(=O)N[C@@H](CCCNC(=N)N)C(=O)NCC(=O)N[C@@H](CC(=O)O)C(=O)O)ccc3nc2-1 |  | nude mice, HepG2 xenograft | intravenous, 3 mg/kg HCPT equivalent, day 21, four doses, initial 300 mm^3 |  | tumour volume | ~146 mm³
CCOP(=O)(OCC)OCCCCOC(=O)CC1=C(C)/C(=C/c2ccc([S+](C)[O-])cc2)c2ccc(F)cc21 (stereo not shown) |  | rat, Freund's adjuvant arthritis | oral, 50 mg/kg once daily, prevention protocol | reference: control | paw weight reduction | 60%

Excerpt of the above:
Structure (SMILES) | assay | test system | setting | scale | measurement | result
CCOP(=O)(OCC)OCCCCOC(=O)CC1=C(C)C(=Cc2ccc([S+](C)[O-])cc2)c2ccc(F)cc21 (stereo not shown) |  | nude mice, A549 xenograft | oral, dose not given |  | tumour growth inhibition | 30%
CC[C@H](C)[C@H](NC(=O)CNC(=O)[C@H](CC(=O)O)NC(=O)[C@H](CC(C)C)NC(=O)[C@@H](NC(=O)[C@H](CC(N)=O)NC(=O)[C@H](CCC(N)=O)NC(=O)CNC(=O)[C@H](CC(C)C)NC(=O)[C@H](CCCCN)NC(=O)[C@H](CCC(=O)O)NC(=O)[C@@H](NC(=O)[C@H](CCCCN)NC(=O)[C@H](CCC(=O)O)NC(=O)[C@H](Cc1ccccc1)NC(=O)[C@H](CC(C)C)NC(=O)[C@H](CCCCN)NC(=O)[C@H](Cc1c[nH]c2ccccc12)NC(=O)[C@@H](N)CCC(=O)O)[C@@H](C)CC)[C@@H](C)CC)C(=O)N[C@H](C(=O)N[C@@H](CCCCN)C(=O)N[C@@H](CC(C)C)C(=O)NCC(=O)N1CCC[C@H]1C(=O)N[C@@H](CC(C)C)C(=O)N[C@@H](CC(C)C)C(=O)N[C@@H](C)C(=O)N[C@@H](CC(C)C)C(=O)N[C@@H](CC(C)C)C(=O)NCC(=O)N[C@@H](CCC(N)=O)C(=O)N[C@@H](CC(C)C)C(=O)N[C@H](C(=O)N[C@@H](CCC(N)=O)C(=O)N[C@H](C(=O)N[C@@H](C)C(=O)N[C@@H](CC(C)C)C(N)=O)[C@@H](C)CC)[C@@H](C)O)[C@@H](C)CC | carboxyfluorescein release, stopped-flow fluorescence | POPC vesicles 50 µM | up to 1 µM, pH 7.5, peptide/lipid 1:50 |  | time constant | 35 s
CCc1noc(CC)c1C(=O)O[C@H]1C(C)=C[C@]23C(=O)[C@@H](C=C(CO)[C@@H](O)[C@]12O)[C@H]1[C@@H](C[C@H]3C)C1(C)C |  | mouse, B16 melanoma | topical, 0.1% hydroalcoholic gel, 3 months, two consecutive days |  | tumour-free animals | 90%
CC(C)C[C@H](NC(=O)[C@H](CCCCN)NC(=O)[C@H](CCCNC(=N)N)NC(=O)[C@@H](CC(C)C)NC(=O)[C@H](Cc1c[nH]c2ccccc12)NC(=O)[C@H](CC(=O)O)NC(=O)[C@H](CCCCN)NC(=O)[C@@H](CC(C)C)NC(=O)[C@H](CCCNC(=N)N)NC(=O)[C@H](CCC(N)=O)NC(=O)[C@@H](NC(=O)[C@@H](CC(C)C)NC(=O)[C@H](CCCNC(=N)N)NC(=O)[C@H](CCCCN)NC(=O)[C@H](Cc1ccc(C(C)(C)C)cc1)NC(=O)CN)C(C)C)C(=O)N[C@H](C(N)=O)C(C)C | ELISA | C57BL/6 mouse, catheter infection, peri-catheter tissue | dose not given, 3 d | reference: untreated infected | TNF-alpha level | decreased
